Measured values collected from several papers.
A part holds a random share of what one study measured. Positions count from the first letter of the parent shown.
Sequence of UniProt Q15759 (whole entry, looked up): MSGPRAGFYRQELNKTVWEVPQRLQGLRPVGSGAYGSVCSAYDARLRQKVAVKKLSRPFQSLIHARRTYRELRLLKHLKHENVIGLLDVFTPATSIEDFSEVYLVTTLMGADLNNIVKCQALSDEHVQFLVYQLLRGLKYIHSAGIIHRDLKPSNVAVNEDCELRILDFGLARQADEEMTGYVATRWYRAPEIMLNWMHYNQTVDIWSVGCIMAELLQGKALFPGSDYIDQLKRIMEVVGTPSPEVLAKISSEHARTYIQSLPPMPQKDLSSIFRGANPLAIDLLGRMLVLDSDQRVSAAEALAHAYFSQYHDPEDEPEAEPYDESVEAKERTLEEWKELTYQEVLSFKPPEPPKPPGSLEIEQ
Sequence of UniProt O75676 (whole entry, looked up): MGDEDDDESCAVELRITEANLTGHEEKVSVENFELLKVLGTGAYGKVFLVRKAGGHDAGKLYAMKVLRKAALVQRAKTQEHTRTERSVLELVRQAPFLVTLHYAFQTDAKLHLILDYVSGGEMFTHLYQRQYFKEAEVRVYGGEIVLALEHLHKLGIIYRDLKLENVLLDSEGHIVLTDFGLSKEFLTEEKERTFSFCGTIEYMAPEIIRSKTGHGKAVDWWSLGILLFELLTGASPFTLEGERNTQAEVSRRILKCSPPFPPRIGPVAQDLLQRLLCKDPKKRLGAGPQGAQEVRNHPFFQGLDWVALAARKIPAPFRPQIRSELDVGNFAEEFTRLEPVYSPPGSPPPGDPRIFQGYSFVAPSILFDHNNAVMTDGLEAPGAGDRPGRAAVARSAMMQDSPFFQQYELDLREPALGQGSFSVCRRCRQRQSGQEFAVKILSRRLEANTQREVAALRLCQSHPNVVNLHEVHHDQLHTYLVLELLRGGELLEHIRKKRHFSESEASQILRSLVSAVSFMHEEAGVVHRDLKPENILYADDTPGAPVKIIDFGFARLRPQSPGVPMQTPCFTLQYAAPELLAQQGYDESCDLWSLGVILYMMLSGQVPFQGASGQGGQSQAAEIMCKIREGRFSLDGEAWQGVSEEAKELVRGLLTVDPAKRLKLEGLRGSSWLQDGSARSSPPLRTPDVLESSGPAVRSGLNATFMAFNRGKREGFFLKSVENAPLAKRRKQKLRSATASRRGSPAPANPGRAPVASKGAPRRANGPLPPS
Sequence of UniProt Q16566 (whole entry, looked up): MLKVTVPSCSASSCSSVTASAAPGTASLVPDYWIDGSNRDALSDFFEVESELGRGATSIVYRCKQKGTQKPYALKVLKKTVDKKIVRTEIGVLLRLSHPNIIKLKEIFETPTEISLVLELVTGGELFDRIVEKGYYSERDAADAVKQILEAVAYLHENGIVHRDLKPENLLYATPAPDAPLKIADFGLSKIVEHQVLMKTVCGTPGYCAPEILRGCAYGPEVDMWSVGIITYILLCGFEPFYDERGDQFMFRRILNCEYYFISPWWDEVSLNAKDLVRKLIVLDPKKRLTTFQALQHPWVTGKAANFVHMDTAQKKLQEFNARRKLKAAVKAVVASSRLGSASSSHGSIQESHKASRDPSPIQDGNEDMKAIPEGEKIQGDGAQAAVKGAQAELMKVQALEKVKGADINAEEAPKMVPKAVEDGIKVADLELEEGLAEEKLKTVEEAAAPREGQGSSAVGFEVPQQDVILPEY
Sequence of UniProt Q16539 (whole entry, looked up): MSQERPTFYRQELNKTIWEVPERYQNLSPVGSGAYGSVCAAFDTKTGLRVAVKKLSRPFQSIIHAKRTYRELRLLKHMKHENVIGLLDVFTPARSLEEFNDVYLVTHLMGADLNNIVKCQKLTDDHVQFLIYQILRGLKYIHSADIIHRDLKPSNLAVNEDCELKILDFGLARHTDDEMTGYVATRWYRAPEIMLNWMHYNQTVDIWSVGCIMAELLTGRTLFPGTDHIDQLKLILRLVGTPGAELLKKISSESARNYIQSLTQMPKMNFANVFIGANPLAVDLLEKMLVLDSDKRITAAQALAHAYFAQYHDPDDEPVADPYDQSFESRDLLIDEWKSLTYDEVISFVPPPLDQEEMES

Block 1
Target: CCNF, cyclin fold, Cln2 fusion (human)
Method: yeast growth competition, sequencing
Matrix: yeast
Setting: strong parent motif
Baseline: not given
Reading: higher = stronger binding
Endpoint: normalised enrichment score
Starting sequence: viral docking peptide; TSVRRALFTGGSD
TSVRRAPFTGGSD [L7P]: 0.29
TSVRRGLFTGGSD [A6G]: 6.49
TSVERALFTGGSD [R4E]: 1.64
TSVRRALFTGKSD [G11K]: 8.61
TSVRRALFTGGAD [S12A]: 8.15
TSVRRALFTRGSD [G10R]: 8.86
TNVRRALFTGGSD [S2N]: 8.35
TSVRRAIFTGGSD [L7I]: 5.74

Block 2
Target: inorganic phosphate, free oxyanion
Method: microfluidic competitive inhibition
Matrix: in vitro, cell-free expressed
Concentration: not given
Setting: derived from inhibition constants, unchanged parent 615000 nM
Reading: lower = stronger binding
Endpoint: phosphate dissociation constant
Starting sequence: PafA, mature enzyme, eGFP fusion (Elizabethkingia meningoseptica, UniProt Q9KJX5); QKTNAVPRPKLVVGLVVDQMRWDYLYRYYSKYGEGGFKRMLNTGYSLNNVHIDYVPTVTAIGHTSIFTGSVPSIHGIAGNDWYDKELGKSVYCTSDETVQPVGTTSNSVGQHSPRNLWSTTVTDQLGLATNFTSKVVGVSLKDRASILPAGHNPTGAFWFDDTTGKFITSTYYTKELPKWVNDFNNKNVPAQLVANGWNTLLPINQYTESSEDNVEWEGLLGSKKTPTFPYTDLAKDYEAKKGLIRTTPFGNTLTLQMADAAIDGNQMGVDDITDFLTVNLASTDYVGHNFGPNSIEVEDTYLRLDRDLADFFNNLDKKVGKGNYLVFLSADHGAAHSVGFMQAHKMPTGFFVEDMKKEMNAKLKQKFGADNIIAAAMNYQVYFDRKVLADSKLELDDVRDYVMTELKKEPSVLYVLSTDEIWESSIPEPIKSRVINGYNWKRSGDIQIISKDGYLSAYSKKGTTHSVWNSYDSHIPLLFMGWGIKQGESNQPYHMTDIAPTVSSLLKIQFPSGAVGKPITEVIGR
V279G: 387 µM
V287G: 834 µM
S70G: 389 µM
L256V: 610 µM
I374V: 672 µM
G35V: 661 µM
V181A: 671 µM
N188G: 555 µM

Block 3
Target: D(1B) dopamine receptor (DRD5, Homo sapiens, UniProt P21918)
Observed: ligand displacement
Concentration: 10 µM
Endpoint: inhibition
Cc1cc(Nc2nccc(C)n2)cc(-c2cnc([C@@]3(O)CC[C@H](C(=O)O)C(C)(C)C3)s2)c1: 8.85%
Cn1cc(Cl)c2c(Oc3c(F)cc(Nc4cc(Cl)nc(N)n4)cc3F)ccnc21: 9.8%
Cc1ccc(-c2cnc([C@@]3(O)CC[C@H](C(=O)O)C(C)(C)C3)s2)cc1Nc1cccc(C(F)(F)F)n1: 18.6%
Cc1c(NC(=O)c2cc(C(N)=O)nc3cc(F)ccc23)c(C(F)(F)F)nn1Cc1ccc(C#N)cc1: -0.829%

Block 4
SMILES: O=C1NC(=O)c2c1c1c3ccccc3n3c1c1c2c2ccccc2n1[C@H]1CC[C@@H]3O1
Observed: enzyme activity
Action: inhibitor
Concentration: 0.5 µM
Baseline: control
Endpoint: remaining activity
CAMK4 (Homo sapiens, UniProt Q16566): 98.7%
MAPK14 (Homo sapiens, UniProt Q16539): 102%
RPS6KA4 (Homo sapiens, UniProt O75676): 12.4%
MAPK11 (Homo sapiens, UniProt Q15759): 108%
MAPK1 (Homo sapiens, UniProt P28482): 88.7%
